Experimental data collected from several papers.
Compare with care: the assays were run in different laboratories. Values joined by “and” are separate records of one study, mostly repeats; a detail may differ. Numbers after ± are the reported error.
UniProt P10632, sequence (whole entry, looked up): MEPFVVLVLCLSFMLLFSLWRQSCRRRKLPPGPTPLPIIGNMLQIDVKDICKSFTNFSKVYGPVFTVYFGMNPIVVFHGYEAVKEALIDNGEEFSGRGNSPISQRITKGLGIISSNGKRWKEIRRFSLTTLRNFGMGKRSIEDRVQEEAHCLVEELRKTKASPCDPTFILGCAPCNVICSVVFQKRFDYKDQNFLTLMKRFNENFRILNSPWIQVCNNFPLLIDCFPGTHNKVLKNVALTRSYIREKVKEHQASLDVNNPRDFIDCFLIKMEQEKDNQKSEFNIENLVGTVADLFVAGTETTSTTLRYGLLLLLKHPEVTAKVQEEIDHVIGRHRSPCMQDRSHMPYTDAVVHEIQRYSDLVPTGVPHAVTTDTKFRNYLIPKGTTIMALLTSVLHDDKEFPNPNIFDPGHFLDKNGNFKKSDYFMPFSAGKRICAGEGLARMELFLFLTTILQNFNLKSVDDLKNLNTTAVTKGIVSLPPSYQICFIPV
UniProt Q86VL8, sequence (whole entry, looked up): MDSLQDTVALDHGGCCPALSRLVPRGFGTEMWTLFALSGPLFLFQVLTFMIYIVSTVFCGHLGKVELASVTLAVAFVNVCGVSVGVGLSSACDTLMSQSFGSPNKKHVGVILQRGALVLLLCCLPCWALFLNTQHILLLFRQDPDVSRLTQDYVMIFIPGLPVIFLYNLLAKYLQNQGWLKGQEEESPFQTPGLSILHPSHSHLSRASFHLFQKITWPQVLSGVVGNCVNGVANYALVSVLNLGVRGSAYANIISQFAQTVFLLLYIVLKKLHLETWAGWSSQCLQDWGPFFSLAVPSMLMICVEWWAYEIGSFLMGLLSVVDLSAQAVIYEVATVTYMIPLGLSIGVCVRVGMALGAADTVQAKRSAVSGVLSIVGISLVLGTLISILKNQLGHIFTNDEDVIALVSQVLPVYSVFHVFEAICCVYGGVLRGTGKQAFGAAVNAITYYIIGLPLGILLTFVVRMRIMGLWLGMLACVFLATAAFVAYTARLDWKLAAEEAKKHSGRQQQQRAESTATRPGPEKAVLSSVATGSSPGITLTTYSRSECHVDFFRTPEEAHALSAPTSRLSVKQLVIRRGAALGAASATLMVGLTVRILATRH

| Structure (SMILES) | target or system | assay | system | conditions | scale | endpoint | result |
| --- | --- | --- | --- | --- | --- | --- | --- |
| O=C([O-])CNC(=O)CN1CCN(CC(=O)NCC(=O)[O-])CCN(CC(=O)NCC(=O)[O-])CCN(CC(=O)NCC(=O)[O-])CC1.[177Lu+3] | – | – | Sprague-Dawley rat, small intestine | intravenous, dose not given, 2 h | – | biodistribution | 0.151 ± 0.013 % injected dose/g |
| CCCCCCCCCCCCCCCC(=O)N[C@@H](CCC(=O)NCCOCCOCCC(=O)NCCOCCOCCC(=O)NCCCC[C@H](NC(=O)[C@H](CC(=O)O)NC(=O)[C@H](CC(C)C)NC(=O)[C@H](Cc1ccc(O)cc1)NC(=O)[C@H](CCCCN)NC(=O)[C@H](CO)NC(=O)[C@H](Cc1ccc(O)cc1)NC(=O)[C@H](CC(=O)O)NC(=O)[C@H](CO)NC(=O)[C@@H](NC(=O)[C@H](Cc1ccccc1)NC(=O)[C@@H](NC(=O)CNC(=O)[C@H](CCC(N)=O)NC(=O)[C@@H](CO)NC(=O)[C@@H](N)Cc1c[nH]cn1)[C@@H](C)O)[C@@H](C)O)C(=O)N[C@@H](CCCNC(=N)N)C(=O)N[C@@H](CCCNC(=N)N)C(=O)N[C@@H](C)C(=O)N[C@@H](CCC(N)=O)C(=O)N[C@@H](CC(=O)O)C(=O)N[C@@H](Cc1ccccc1)C(=O)N[C@H](C(=O)N[C@@H](CCC(N)=O)C(=O)N[C@@H](Cc1c[nH]c2ccccc12)C(=O)N[C@@H](CC(C)C)C(=O)N[C@@H](CC(C)C)C(=O)N[C@@H](CC(N)=O)C(=O)N[C@H](C(=O)NCC(=O)NCC(=O)N1CCC[C@H]1C(=O)N[C@@H](CO)C(=O)N[C@@H](CO)C(=O)NCC(=O)N[C@@H](C)C(=O)N1CCC[C@H]1C(=O)N1CCC[C@H]1C(=O)N1CCC[C@H]1C(=O)N[C@@H](CO)C(N)=O)[C@@H](C)O)C(C)C)C(=O)O | – | measured: ALP | rhesus monkey, male | subcutaneous, 20 µg/kg once daily, 28 days | – | serum enzyme activity | 335 ± 92.5 U/L |
| CSCC[C@H](N)C(=O)N[C@@H](C)C(=O)N[C@@H](Cc1c[nH]c2ccccc12)C(=O)N[C@@H](Cc1c[nH]cn1)C(=O)N[C@@H](CC(=O)O)C(=O)N[C@@H](CC(=O)O)C(=O)N[C@@H](CCC(=O)O)C(=O)N[C@@H](CCC(=O)O)C(=O)N[C@@H](Cc1ccccc1)C(=O)N[C@@H](C)C(=O)N[C@@H](CCCNC(=N)N)C(=O)N[C@@H](CCCNC(=N)N)C(=O)N[C@@H](CCCNC(=N)N)C(=O)N[C@@H](CCCNC(=N)N)C(=O)NCCCCCC(=O)NCCCCC(NC(=O)CCCCCNC(=O)[C@H](CCCNC(=N)N)NC(=O)[C@H](CCCNC(=N)N)NC(=O)[C@H](CCCNC(=N)N)NC(=O)[C@H](CCCNC(=N)N)NC(=O)[C@H](C)NC(=O)[C@H](Cc1ccccc1)NC(=O)[C@H](CCC(=O)O)NC(=O)[C@H](CCC(=O)O)NC(=O)[C@H](CC(=O)O)NC(=O)[C@H](CC(=O)O)NC(=O)[C@H](Cc1c[nH]cn1)NC(=O)[C@H](Cc1c[nH]c2ccccc12)NC(=O)[C@H](C)NC(=O)[C@@H](N)CCSC)C(=O)NCCCCC(NC(=O)C(CCCCNC(=O)CCCCCNC(=O)[C@H](CCCNC(=N)N)NC(=O)[C@H](CCCNC(=N)N)NC(=O)[C@H](CCCNC(=N)N)NC(=O)[C@H](CCCNC(=N)N)NC(=O)[C@H](C)NC(=O)[C@H](Cc1ccccc1)NC(=O)[C@H](CCC(=O)O)NC(=O)[C@H](CCC(=O)O)NC(=O)[C@H](CC(=O)O)NC(=O)[C@H](CC(=O)O)NC(=O)[C@H](Cc1c[nH]cn1)NC(=O)[C@H](Cc1c[nH]c2ccccc12)NC(=O)[C@H](C)NC(=O)[C@@H](N)CCSC)NC(=O)CCCCCNC(=O)[C@H](CCCNC(=N)N)NC(=O)[C@H](CCCNC(=N)N)NC(=O)[C@H](CCCNC(=N)N)NC(=O)[C@H](CCCNC(=N)N)NC(=O)[C@H](C)NC(=O)[C@H](Cc1ccccc1)NC(=O)[C@H](CCC(=O)O)NC(=O)[C@H](CCC(=O)O)NC(=O)[C@H](CC(=O)O)NC(=O)[C@H](CC(=O)O)NC(=O)[C@H](Cc1c[nH]cn1)NC(=O)[C@H](Cc1c[nH]c2ccccc12)NC(=O)[C@H](C)NC(=O)[C@@H](N)CCSC)C(N)=O (stereo partly drawn) | – | – | mouse C57BL/6 female, small intestine | 6 h, radioiodinated peptide | reference: total radioactivity | tissue distribution | 7.75% and 14.4% and 17% |
| CC(=O)NCCCC[C@@H]1NC(=O)[C@H](Cc2c[nH]c3c(C)cccc23)NC(=O)[C@H]([C@@H](C)O)NC(=O)[C@H](CC(N)=O)NC(=O)[C@@H](NC(C)=O)C(C)(C)SSC(C)(C)[C@@H](C(=O)N[C@@H](Cc2ccc(OCCN)cc2)C(=O)N[C@@H](Cc2ccc3ccccc3c2)C(=O)NC2(C(=O)N[C@@H](CCC(=O)O)C(=O)N[C@@H](CC(N)=O)C(=O)N[C@@H](Cc3cccnc3)C(=O)N(C)CC(N)=O)CCOCC2)NC1=O | Multidrug and toxin extrusion protein 2 (SLC47A2, Homo sapiens, UniProt Q86VL8) | substrate | MDCK-II overexpressing transporter | 5 µM, 30 min, with: 100 µM pyrimethamine | – | uptake rate | 0.699 ± 0.044 pmol/mg/min |
| COc1cnc2cccc(N3CCc4c(cc(Cn5ccnc5)cc4-c4cn(C)nc4C(F)(F)F)C3=O)c2c1 | – | – | CD-1 mice | intraperitoneal, 100 mg/kg once daily, day 4 | – | body weight | 30.1 ± 1 g |
| C[C@@H](c1ccc2nccn2c1)n1nnc2ncc(-c3cn[nH]c3)nc21 | Cytochrome P450 2C8 (CYP2C8, Homo sapiens, UniProt P10632) | enzyme activity, inhibitor | human, liver microsomes | – | – | IC50 | 6.4 µM |
| N=C(N)NCCC[C@@H](NC(=O)[C@H](N)Cc1c[nH]c2ccccc12)C(=O)N[C@H](CCCCN)C(=O)N[C@H](Cc1c[nH]c2ccccc12)C(=O)N[C@H](CCCNC(=N)N)C(=O)N[C@H](CCCCN)C(=O)N[C@H](Cc1c[nH]c2ccccc12)C(=O)N[C@H](CCCNC(=N)N)C(=O)N[C@H](CCCCN)C(=O)N[C@H](Cc1c[nH]c2ccccc12)C(=O)N[C@H](CCCNC(=N)N)C(=O)N[C@H](CCCCN)C(N)=O | – | – | mouse, spleen | intravenous, 40 mg/kg single dose, 7 days | – | organ index | 0.522 |
| COc1ccccc1-c1n[nH]c2nc(NC3CCN(C(=O)Cc4ccc(F)cc4F)CC3)ncc12 | – | bead binding, competition bead pull-down, measured: LMJF.21.0810 | Leishmania donovani axenic amastigote extract | 10 µM | reference: vehicle | relative abundance | 1.03 |
| N=C(N)NCCC[C@@H]1NC(=O)[C@H](CCCCNC(=O)CCC(NC(=S)Nc2ccc(CC3CN(CC(=O)O)CCN(CC(=O)O)CCN(CC(=O)O)CCN3CC(=O)O)cc2)C(=O)NCCCC[C@@H]2NC(=O)[C@@H](Cc3ccc(O)cc3)NC(=O)[C@H](CC(=O)O)NC(=O)CNC(=O)[C@H](CCCNC(=N)N)NC2=O)NC(=O)[C@@H](Cc2ccc(O)cc2)NC(=O)[C@H](CC(=O)O)NC(=O)CNC1=O (stereo partly drawn) [scandium-44 labelled] | – | PET imaging ROI | female athymic nude mice, U-87 MG xenograft, kidney | intravenous, 4 h, with: cRGD 50 mg/kg blocking | – | tissue uptake | 0.21 ± 0.05 %ID/g |
| CC[C@H](C)[C@H](NC(=O)[C@H](CCCCN)NC(=O)CNC(=O)[C@H](CC(C)C)NC(=O)[C@H](Cc1ccccc1)NC(=O)[C@H](CCCCN)NC(=O)[C@H](CO)NC(=O)[C@H](Cc1ccccc1)NC(=O)[C@H](Cc1c[nH]c2ccccc12)NC(=O)[C@H](CCC(N)=O)NC(=O)[C@@H](NC(=O)[C@H](Cc1ccccc1)NC(=O)CCCCCNC(=O)CN1CCN(CC(=O)O)CCN(CC(=O)O)CCN(CC(=O)O)CC1)C(C)C)C(=O)N[C@@H](CCC(=O)O)C(=O)N1CCC[C@H]1C(=O)N[C@@H](CC(=O)O)C(=O)N[C@H](C(=O)N[C@@H](CO)C(=O)N[C@@H](CCC(N)=O)C(=O)N[C@H](C(=O)N[C@@H](CCC(N)=O)C(=O)N[C@@H](CC(=O)O)C(=O)N1CCC[C@H]1C(=O)N[C@@H](CC(N)=O)C(=O)N[C@@H](CC(=O)O)C(=O)N[C@@H](CCC(N)=O)C(=O)N[C@@H](Cc1ccc(O)cc1)C(=O)N[C@@H](CCC(=O)O)C(=O)N1CCC[C@H]1C(=O)N[C@@H](Cc1ccccc1)C(=O)O)C(C)C)C(C)C [copper-64 labelled] | – | – | C57BL/6 mice, male, tumour-free, kidneys | 24 h | – | tissue uptake | 14.6 ± 3.3 %ID/g |
| C#Cc1c(F)ccc2cc(O)cc(-c3ncc4c(N5CC6CCC(C5)N6C(=O)OC(C)OC(=O)C(C)(C)C)nc(OC[C@@]56CCCN5C[C@H](F)C6)nc4c3F)c12 (stereo partly drawn) | – | chemical stability | simulated intestinal fluid | 1 µM, 30 min | – | compound remaining | 94.7% |
| CS(C)(=O)=Nc1ccc(-c2ccc(-c3nc4cc(O[C@@H]5CO[C@H]6[C@@H]5OC[C@H]6O)[nH]c4cc3F)cc2)cc1 | RAF proto-oncogene serine/threonine-protein kinase (RAF1, Homo sapiens, UniProt P04049) | enzyme activity, inhibitor | – | 10 µM | – | inhibition | 17% |
| CSCC[C@H](NC(=O)CNC(=O)[C@H](CCCCN)NC(=O)[C@H](CC(C)C)NC(=O)[C@@H]1CCCN1C(=O)[C@H](CO)NC(=O)[C@H](Cc1c[nH]cn1)NC(=O)[C@H](Cc1c[nH]c2ccccc12)NC(=O)[C@H](CCCNC(=N)N)NC(=O)[C@H](CC(C)C)NC(=O)[C@H](CCCNC(=N)N)NC(=O)[C@H](Cc1c[nH]c2ccccc12)NC(=O)[C@H](CS)NC(=O)CCCCCNC(=O)CN1CCN(CC(=O)O)CCN(CC(=O)O)CCN(CC(=O)O)CC1)C(=O)O [copper-64 labelled] | – | – | male C57BL/6J mice, B16-F10 tumour, small intestine | intravenous, 1.85 MBq, 18 h | – | tissue uptake | 3.29 %ID/g |
| O=C1NC2(CC2)COc2ncc(F)cc2[C@H]2COCCN2c2ccn3ncc1c3n2 | – | – | Sprague-Dawley rat, female, uterus | oral, 20 mg/kg/day, 4 weeks, end of treatment | – | organ-to-body weight ratio | 0.155 ± 0.03% |
| CCc1nn(C)c2nc(-c3ccc(C(=O)O)cc3)nc(NCc3ccccc3)c12 | – | – | male CD-1 mouse, plasma | oral, 10 mg/kg, 2 h | – | concentration | 672 ng/mL |
| CC[C@H](C)[C@H](NC(=O)[C@H](CCCN)NC(=O)[C@H](CCCNC(=N)N)NC(=O)[C@@H]1CCCN1C(=O)[C@@H]1CCCN1C(=O)[C@H](CCCNC(=N)N)NC(=O)[C@@H]1CCCN1C(=O)[C@H](CCCNC(=N)N)NC(=O)[C@@H]1CCCN1C(=O)[C@H](CC(C)C)NC(=O)[C@H](Cc1ccc(O)cc1)NC(=O)[C@@H]1CCCN1C(=O)[C@@H]1CCCN1C(=O)[C@H](CCCCN)NC(=O)[C@H](CC(=O)O)NC(=O)[C@@H](N)C(C)C)C(=O)N[C@@H](Cc1ccc(O)cc1)C(=O)N[C@@H](CC(N)=O)C(=O)N[C@@H](CCCN)C(N)=O | – | competitive ELISA | mouse CD-1, female, plasma | subcutaneous, 4.34 µmol/kg | – | volume of distribution | 47.3 mL |
| CC(C)(C)C(=O)OCOP(=O)(OCOC(=O)C(C)(C)C)C1CCCN(O)C1=O (stereo not drawn) | UACC-257 | – | – | – | – | GI50 | 1190 nM |
| CCCCCCCCCCCCCC(=O)N[C@H](CCN)C(=O)N[C@@H]1C(=O)N[C@@H](CCN)C(=O)N[C@@H](CC(C)C)C(=O)N[C@@H](CCN)C(=O)N[C@H](Cc2ccccc2)C(=O)N[C@@H](CC(C)C)C(=O)N[C@@H](CCN)C(=O)N[C@H](CCN)C(=O)N[C@@H](C(C)C)C(=O)N[C@@H](CC(=O)O)C(=O)O[C@@H]1C | – | – | rat, plasma | intravenous, 5 mg/kg | – | Vd | 0.432 L/kg |

A few entries again:
| Structure (SMILES) | target or system | assay | system | conditions | scale | endpoint | result |
| --- | --- | --- | --- | --- | --- | --- | --- |
| C[C@@H](c1ccc2nccn2c1)n1nnc2ncc(-c3cn[nH]c3)nc21 | Cytochrome P450 2C8 (CYP2C8, Homo sapiens, UniProt P10632) | enzyme activity, inhibitor | human, liver microsomes | – | – | IC50 | 6.4 µM |
| N=C(N)NCCC[C@@H](NC(=O)[C@H](N)Cc1c[nH]c2ccccc12)C(=O)N[C@H](CCCCN)C(=O)N[C@H](Cc1c[nH]c2ccccc12)C(=O)N[C@H](CCCNC(=N)N)C(=O)N[C@H](CCCCN)C(=O)N[C@H](Cc1c[nH]c2ccccc12)C(=O)N[C@H](CCCNC(=N)N)C(=O)N[C@H](CCCCN)C(=O)N[C@H](Cc1c[nH]c2ccccc12)C(=O)N[C@H](CCCNC(=N)N)C(=O)N[C@H](CCCCN)C(N)=O | – | – | mouse, spleen | intravenous, 40 mg/kg single dose, 7 days | – | organ index | 0.522 |
